Measured values collected from several papers.
Parts stem from different laboratories: compare values within a part only. Substitutions count along the parent as printed.

Block 1
Target: Hepatocyte nuclear factor 3-alpha (Foxa1, Mus musculus, UniProt P35582, residues 1-468, full length assumed)
Method: EMSA with sequencing
Form: double-stranded DNA, one strand shown
Sample: in vitro
Tested at: 10 and 20 nM
Setting: whole designed probe, mean of two concentrations, ends assumed
Reference: negative control set to 0
Reading: higher = stronger binding
All sequences stand within: GTGAGCGGTGCCCATTGATGGGGAAC … TTTCACTGGGATCGTGGGGAC
Target sequence (chain): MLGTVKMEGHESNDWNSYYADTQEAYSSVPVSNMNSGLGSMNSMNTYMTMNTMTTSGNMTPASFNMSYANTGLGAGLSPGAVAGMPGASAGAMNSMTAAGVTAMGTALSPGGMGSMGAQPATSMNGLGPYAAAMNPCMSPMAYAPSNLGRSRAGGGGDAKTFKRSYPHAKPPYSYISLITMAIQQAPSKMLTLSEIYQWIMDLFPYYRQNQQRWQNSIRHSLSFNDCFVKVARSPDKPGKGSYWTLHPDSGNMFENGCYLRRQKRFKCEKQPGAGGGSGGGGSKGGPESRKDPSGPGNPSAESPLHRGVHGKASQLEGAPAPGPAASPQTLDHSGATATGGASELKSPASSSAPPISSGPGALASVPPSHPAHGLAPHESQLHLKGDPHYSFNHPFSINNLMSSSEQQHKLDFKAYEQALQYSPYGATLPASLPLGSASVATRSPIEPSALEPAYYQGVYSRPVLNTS
| Sequence | normalised bound fraction [ratio] |
| --- | --- |
| AAGCAGCCAGTGTCTCTGACACCATACAAATAAAATGCAGCACCATTTGGTGATCCAGCCTAAGATTATTCTTCTCCCTTTGGCAACAGACACAAATTACTTACTATCTTTCCCAGAGCAATAGAGGGAAGCCAGGAAAGTGCTGAGCTTGTATTCTACAACCTGAGAAGGAAGTAAGGGAAAGGAAGAGCTC | 0.0278 |
| CTACATAAAATATCACTTATCAAAGTCTGTTTATGACCTCTTTTAAATCCAGAAATCATACTGCTGTCAATTCATTTTTAGCAGCAATCCTAAGTCAACATGAGTCTATGTATCTTGAGTAATCCTTGGCAGGGTGCAGAGCAGTAAATCATATTTTATTACTCAAGATGGCAGAAGCTAGAGCTATCTGAAA | 0.16 |
| CTGACAGCATGATTTAATGGCCTGGTTGCTCCATGAGTTGACATGGCAACCACAGAAAATGCCATAAATATCTGAGTGTGGACGTGAATGCTATGTTTACATTGTGTGTGGTGCATTGTGTGACATGTGGTGGCTGTTGTCTCTTCCAGTTGGAAACGTCTGGAATTGACAGCCATGTTTTAGAGCCATTTGG | 0.459 |
| TCCCTTTTATAGGAATTATGCAGAAATTATTCCATTTCTTTGAACATTTGGGAGCATATGCAGAGTAAAGTATAAATGCTTGCAGAATGCCTTTATTTGCATATTGCAGTTTTTCAGAAATTATCTCCCTTCAGCACACCAAAGGCTTTGATTTCTACTAATTCTAATAATATTCAGGGTGAAGGAGAAACTG | 0.349 |
| TCGGCCAGCCTGGCTTCTGCGCCCCGCCAGGAGGTCGCGGAGCGGAGCGCGGCCAGGAAGTGAGCTGAGAGTGACAGCTCCCCCCACGCGAGAATAAACAAACATCCAATGACTCATTCCACACTGGCTCTTCTTTCTTTCGGGAGGAGGGGAGAAAGGAGCGGGAGGGCGGGCGGGCAGGGGAGAGGCAGGC | 0.31 |

Block 2
Target: Histone acetyltransferase KAT6A, winged helix 1, GST fusion (KAT6A, Homo sapiens, UniProt Q92794, residues 1-85)
Method: protein binding microarray
Form: double-stranded DNA, one strand shown
Sample: in vitro
Tested at: not given
Setting: 8-mer, flanks averaged, mean of 2 arrays, mostly near background
Reference: not given
Reading: higher = stronger binding
Construct (chain): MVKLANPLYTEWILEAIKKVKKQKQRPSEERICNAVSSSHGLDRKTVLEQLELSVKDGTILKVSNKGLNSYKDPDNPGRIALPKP
| Sequence | E-score |
| --- | --- |
| GTTACCCA | -0.093 |
| ATGTAATG | -0.00251 |
| CACAACTC | -0.193 |
| CTGTTTGC | 0.0463 |
| GAGCACGA | -0.0753 |
| AGATACGA | -0.0866 |
| CATAGTGG | -0.0458 |
| ACGCCCAC | -0.0683 |
| CCACGGGC | 0.301 |
| CATCACGG | 0.169 |
| GCGTCAAC | 0.256 |
| AGCGTCGA | -0.0101 |
| ACCTAATC | -0.00877 |
| CCGCGGGA | 0.445 |
| GACACGCC | 0.1 |
| AACGTATT | -0.0169 |
| AATTTTGT | -0.0589 |
| ACTGTCCA | -0.136 |

Block 3
Target: Interferon regulatory factor 7, full length, phosphomimetic (IRF7, Homo sapiens, UniProt Q92985, residues 1-503, S101K/S471D/S472D/S475D/S476D/S477D/S483D/S484D/S487D)
UniProt Q92985, sequence (whole entry, unmodified, looked up): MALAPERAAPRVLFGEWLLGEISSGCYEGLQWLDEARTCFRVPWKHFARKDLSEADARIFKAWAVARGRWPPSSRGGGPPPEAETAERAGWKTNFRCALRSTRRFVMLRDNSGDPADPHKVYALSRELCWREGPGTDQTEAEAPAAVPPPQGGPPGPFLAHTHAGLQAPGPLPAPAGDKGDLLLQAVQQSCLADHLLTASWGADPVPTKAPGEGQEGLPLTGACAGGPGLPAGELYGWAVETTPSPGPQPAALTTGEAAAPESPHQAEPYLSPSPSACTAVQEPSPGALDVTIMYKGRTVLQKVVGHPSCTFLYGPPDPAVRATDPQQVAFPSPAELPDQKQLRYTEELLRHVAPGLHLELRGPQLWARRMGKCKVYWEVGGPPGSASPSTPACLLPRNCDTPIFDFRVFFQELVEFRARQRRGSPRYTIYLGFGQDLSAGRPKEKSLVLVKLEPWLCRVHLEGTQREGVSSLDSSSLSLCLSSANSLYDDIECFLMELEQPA
Method: protein-binding microarray
Form: double-stranded DNA, one strand shown
Sample: in vitro
Tested at: 250 nM
Setting: 60-bp whole probe
Together with: salmon DNA 0.4 mg/ml
Reference: random background probes
Reading: higher = stronger binding
All sequences stand within: GCCTAGCAC … GTCTTGATTCGCTTGACGCTGCTG
| Sequence | log fluorescence [z-score] |
| --- | --- |
| TCAATTTTCTAAATGCCACTGTGCTAG | 1.47 |
| TCAAGACTCTCTTGTCTGACTGTGCTA | -0.0482 |
| TTAGAACTGATTTTCGATTAGTGCTAG | 2.49 |
| GACGATTTCGGGTAACGAGACGTGCTA | 0.615 |
| TTAGAACTGAGTTTCGAGTAGTGCTAG | 3.48 |
| TCAATCTTCATTGTCATACTGTGCTAG | 0.203 |
| GGAAGTATGACTCTGCCTCTGTGCTAG | -0.773 |
| TCACAAATGCCCTCTCCAACTGTGCTA | -0.236 |
| TTAGGTATCGGGTTTCTGTTAGTGCTA | 3.46 |
| TCATGCTTTCATTTATTACTGTGCTAG | 0.445 |
| TTAGGTCTTGGTTTCGGTTAGTGCTAG | 8.74 |
| ATAGGTCTCGGTCTCGGTTAGTGCTAG | 2.76 |
| TTAGATATCGGGACTGCATTAGTGCTA | -0.207 |
| TCCTTTATGTACTCTCTACATGTGCTA | 0.896 |
| GACGAACTGATTTTCGAGACGTGCTAG | 0.576 |
| TTAGGTATCGGTATCAGTTAGTGCTAG | 1.45 |

Block 4
Target: RNA binding protein fox-1 homolog 2, RRM domain, GST-SBP tag (RBFOX2, Homo sapiens, UniProt O43251-10, residues 100-194)
Method: RNA Bind-n-Seq
Form: RNA
Sample: in vitro
Tested at: 365 nM
Setting: natural RNA segment, single round, ends assumed
Reference: no-protein control
Reading: higher = stronger binding
All sequences stand within: GGGAGUUCUACAGUCCGACGAUC … UGGAAUUCUCGGGUGCCAA
Target sequence (chain): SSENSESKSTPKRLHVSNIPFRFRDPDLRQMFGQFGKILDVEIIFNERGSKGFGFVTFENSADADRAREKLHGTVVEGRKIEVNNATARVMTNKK
| Sequence | RBNS enrichment (R) |
| --- | --- |
| GAUUCUCUCCUCUCCCAUCCCAGAAAACAAAACAAAAUAAUGCUUUUCGAAAUUGUUUCUAGGACUUUAAAACAUAAUGGUAUAUCCAAAAUUCUUUAUUUCAGAAUGCA | 1.33 |
| GAAUCGACUUCCAAACAGAUUCGAGCGAUGCUUCAUAGAGGCCUGCUCAGAGAGGAGGAUCUAUGCUGACCUCAGAAGAUGUAGAUGUUUACAUAAUUUAAUACAGAUUG | 0.26 |
| UAAAUGAGGAGGGAGAAGAUAAAGGAAACUUCUAGCCCCUGUCCUUAGUGCUUUGAGGAUUUUAUUUUCUCCCUUACUACGCUUGCUUGACGUCACUCUCUCUCGACCUC | 1.07 |
| AGAGUGUGGAGAUCAGUAACCAUAUCCUGAGGAAAGUGGUGAUUCCCCUGCUAGAUGAUUCACCCACAAACCUUCCCACCCAGGUGUUCUCUGAAAGCUUAGCCUCAAGG | 0.558 |
| UGUCAGCAUCUGUUCUAUCAGUAAGAAAGAGCAGGCAGGACACAUUAAAGGUUCUGUGUCAGCUAUUUUCAUUGCCAAUGAAAUGUAUUCAGUAUUGUAGAUACUAAACC | 0.194 |
| GUUCUGUGCUAGAGAUUGAGAACAAUGUAAAGACUUGAGGCUUAGGUAGUGCUCUAUCUGGUCAGGCUAUAGGCUGCGGGCAGCCUUCACUUCCAACCAGCCGCUGUGAG | 2.4 |
| UGUGCGCCUGCUCGACCCCGGGCCUGAGCAGGGGCGCCAAAUCUCCCACUAUACCUGAGCACCGGGAGCUUCCAGAGCACGCCUGCCUCCCUCCCUCUAGUCUGCAUGUG | 14 |
| AAUUGGCUUUUGAAUCAAAGAAUAGGGAGACAAUCUAAAAAAUAUCUUAGGUUGGAGAUGACAGAAAUAUGAUUGAUUUGAAGUGGAAAAAGAAAUUCUGUUAAUGUUAA | 0.827 |

Block 5
Target: CCNB2, cyclin fold, Cln2 fusion (human)
Method: yeast growth competition, sequencing
Sample: yeast
Setting: weak parent motif
Reference: not given
Reading: higher = stronger binding
Starting sequence: CDKN1B docking peptide (human); PSACRNLFGPVDH
| Variant | normalised enrichment score |
| --- | --- |
| PSACRYLFGPVDH [N6Y] | -0.357 |
| PSACRNLFGPQDH [V11Q] | -0.0754 |
| PSACRFLFGPVDH [N6F] | -0.435 |
| PSACRNLFGMVDH [P10M] | -0.221 |
| PSAWRNLFGPVDH [C4W] | 0.247 |
| PSACRNLFGIVDH [P10I] | 0.319 |
| PSACRNLFGPVVH [D12V] | -0.0024 |
| PSACRNLFHPVDH [G9H] | 0.203 |
| PCACRNLFGPVDH [S2C] | 0.0416 |
| PDACRNLFGPVDH [S2D] | -0.26 |
| PSACRNLFGPVDR [H13R] | 0.0628 |
| PSACRNLFGPNDH [V11N] | 0.164 |
| PSACRNLFGPVYH [D12Y] | 0.379 |
| PSACRCLFGPVDH [N6C] | -0.131 |

Some of these lines once more (block 3):
| Sequence | log fluorescence [z-score] |
| --- | --- |
| TCACAAATGCCCTCTCCAACTGTGCTA | -0.236 |
| TTAGGTATCGGGTTTCTGTTAGTGCTA | 3.46 |
| TCATGCTTTCATTTATTACTGTGCTAG | 0.445 |
| TTAGGTCTTGGTTTCGGTTAGTGCTAG | 8.74 |
| ATAGGTCTCGGTCTCGGTTAGTGCTAG | 2.76 |
| TTAGATATCGGGACTGCATTAGTGCTA | -0.207 |
| TCCTTTATGTACTCTCTACATGTGCTA | 0.896 |
